Measurements pooled from the literature.
Compare with care: the assays were run in different laboratories. Values joined by “and” are separate records of one study, mostly repeats; a detail may differ. Numbers after ± are the reported error.
UniProt P06873, sequence (whole entry, looked up): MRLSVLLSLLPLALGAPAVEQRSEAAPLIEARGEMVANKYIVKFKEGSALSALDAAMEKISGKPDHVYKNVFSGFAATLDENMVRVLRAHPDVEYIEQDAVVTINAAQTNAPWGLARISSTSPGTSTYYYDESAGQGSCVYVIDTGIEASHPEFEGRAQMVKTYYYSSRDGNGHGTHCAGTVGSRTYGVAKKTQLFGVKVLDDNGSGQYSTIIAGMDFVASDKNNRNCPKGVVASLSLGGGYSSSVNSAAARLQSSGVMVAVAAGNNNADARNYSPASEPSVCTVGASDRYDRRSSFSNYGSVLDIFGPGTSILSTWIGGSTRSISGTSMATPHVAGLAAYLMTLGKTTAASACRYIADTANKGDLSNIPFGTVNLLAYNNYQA
UniProt Q9H7Z7, sequence (whole entry, looked up): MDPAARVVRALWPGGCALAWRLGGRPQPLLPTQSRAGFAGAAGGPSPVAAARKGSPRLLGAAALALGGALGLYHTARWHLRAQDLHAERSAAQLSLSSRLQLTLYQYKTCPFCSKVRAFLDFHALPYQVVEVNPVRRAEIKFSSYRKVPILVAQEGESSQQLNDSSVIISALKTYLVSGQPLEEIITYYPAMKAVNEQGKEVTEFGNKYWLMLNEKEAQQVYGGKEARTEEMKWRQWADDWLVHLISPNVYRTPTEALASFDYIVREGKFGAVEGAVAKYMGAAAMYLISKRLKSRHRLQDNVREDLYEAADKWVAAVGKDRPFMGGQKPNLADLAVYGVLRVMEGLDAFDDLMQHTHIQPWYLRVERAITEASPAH
UniProt P08684, sequence (whole entry, looked up): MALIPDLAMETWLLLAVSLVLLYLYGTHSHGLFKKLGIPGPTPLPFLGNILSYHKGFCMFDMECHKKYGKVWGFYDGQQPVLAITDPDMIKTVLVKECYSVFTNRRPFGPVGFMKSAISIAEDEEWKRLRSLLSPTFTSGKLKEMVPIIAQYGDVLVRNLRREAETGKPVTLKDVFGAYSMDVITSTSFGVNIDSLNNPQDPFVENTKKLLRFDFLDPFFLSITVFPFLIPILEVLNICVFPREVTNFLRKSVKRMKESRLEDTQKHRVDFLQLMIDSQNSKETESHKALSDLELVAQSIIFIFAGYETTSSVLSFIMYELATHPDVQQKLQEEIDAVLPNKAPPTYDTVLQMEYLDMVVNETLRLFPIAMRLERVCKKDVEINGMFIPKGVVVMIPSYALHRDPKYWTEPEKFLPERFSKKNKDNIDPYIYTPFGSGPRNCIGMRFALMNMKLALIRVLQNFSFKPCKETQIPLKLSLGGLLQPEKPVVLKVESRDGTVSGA
UniProt Q9UQM7, sequence (whole entry, looked up): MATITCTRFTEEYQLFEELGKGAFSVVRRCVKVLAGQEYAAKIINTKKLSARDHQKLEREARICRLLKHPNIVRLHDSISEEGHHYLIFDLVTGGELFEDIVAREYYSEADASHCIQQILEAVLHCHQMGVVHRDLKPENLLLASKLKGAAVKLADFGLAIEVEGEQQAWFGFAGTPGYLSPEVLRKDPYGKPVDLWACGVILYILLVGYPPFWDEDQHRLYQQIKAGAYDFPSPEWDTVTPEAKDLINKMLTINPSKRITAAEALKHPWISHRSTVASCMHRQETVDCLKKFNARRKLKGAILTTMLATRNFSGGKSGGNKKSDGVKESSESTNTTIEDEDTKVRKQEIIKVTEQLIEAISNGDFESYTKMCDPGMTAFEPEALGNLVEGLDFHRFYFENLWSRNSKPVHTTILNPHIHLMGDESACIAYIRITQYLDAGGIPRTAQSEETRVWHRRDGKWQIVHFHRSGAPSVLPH
UniProt P43251, sequence (whole entry, looked up): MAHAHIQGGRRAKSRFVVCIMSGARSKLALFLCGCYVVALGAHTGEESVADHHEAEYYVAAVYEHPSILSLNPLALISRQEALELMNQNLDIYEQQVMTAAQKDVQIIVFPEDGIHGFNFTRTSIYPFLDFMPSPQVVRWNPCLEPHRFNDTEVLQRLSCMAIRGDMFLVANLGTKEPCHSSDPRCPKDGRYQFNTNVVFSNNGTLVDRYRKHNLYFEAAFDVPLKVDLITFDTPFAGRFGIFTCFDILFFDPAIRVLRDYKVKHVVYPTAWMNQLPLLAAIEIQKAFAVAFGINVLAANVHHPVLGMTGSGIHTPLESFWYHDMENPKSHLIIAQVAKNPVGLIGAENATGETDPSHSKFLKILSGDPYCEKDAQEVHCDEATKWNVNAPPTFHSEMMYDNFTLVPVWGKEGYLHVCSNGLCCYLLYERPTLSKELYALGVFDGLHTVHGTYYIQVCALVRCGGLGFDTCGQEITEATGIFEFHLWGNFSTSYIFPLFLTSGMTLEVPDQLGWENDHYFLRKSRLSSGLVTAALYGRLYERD

For `CO[C@H]1C[C@@H]2CC[C@@H](C)[C@@](O)(O2)C(=O)C(=O)N2CCCC[C@H]2C(=O)O[C@H]([C@H](C)C[C@@H]2CC[C@@H](OC(=O)NCCOCCOCCOCCOCCOCCOCCOCCOCCC(=O)N3CCc4cc(Cn5nc(-c6ccc7oc(N)nc7c6)c6c(N)ncnc65)ccc4C3)[C@H](OC)C2)C[C@@H](O)[C@H](C)/C=C(\C)[C@@H](O)[C@@H](OC)C(=O)[C@H](C)C[C@H](C)/C=C/C=C/C=C/1C`, “maculopapular rash TEAE incidence” read 0% (dose-escalation trial; patients with advanced solid tumours; intravenous, 1.6 mg/3 mg weekly, any grade).
`[Cl-].[Cl-].[Pt+2].[Ru+2].c1ccc(-c2nc3cc4ccccc4cc3nc2-c2ccccn2)nc1.c1cnc2c(c1)ccc1cccnc12.c1cnc2c(c1)ccc1cccnc12` has a survival rate of 100% (Danio rerio; embryos; 90 µM, 0 h).
`O=c1ccc2ccccc2o1`: “probability of response” 8.41% (HepG2; refers to: cell count; concentration not given, 24 h, mitochondrial oxidative stress panel).
`O=C(c1ccc(Cl)cc1)N1CCN2C(=O)N(OC(=O)N3CCOc4ccccc43)C(=O)C2C1` (stereo not shown): “probe labelling ratio” 1.78 (Biotinidase (Homo sapiens, UniProt P43251); MS-based ABPP; SW-620 conditioned medium; 10 µM, 1 h, 37 °C, mean protein ratio; relative to: compound over DMSO).
Under “revertant colonies per plate”, `COc1cccc(-c2n[nH]c(SCc3ccccn3)n2)c1OC` is recorded as 108 (Salmonella typhimurium; Ames test, plate incorporation; TA100; 0.25 mg/plate, without S9).
For `CC[C@H](C)[C@@H]1NC(=O)[C@@H]2CCCN2C(=O)[C@H](CC(C)C)NC(=O)[C@H](CC(C)C)NC(=O)CNC(=O)[C@@H](NC(=O)[C@@H](NC(=O)[C@H](CC(=O)O)NC(=O)CNC(=O)[C@@H](NC(=O)[C@H](C)NC(=O)CNC(=O)[C@H](CCCCN)NC(=O)[C@H](CC(C)C)NC(=O)[C@H](CC(C)C)NC(=O)[C@H](CCCCN)NC(=O)CNC(=O)[C@@H](NC(=O)[C@@H](N)CC(C)C)C(C)C)C(C)C)C(C)C)CSSC[C@@H](C(=O)O)NC1=O`, “log2 fold change” read -3.31 (RNA-seq, refers to: Cytip mRNA; mouse traumatic brain injury, frontal cortex and hippocampus; dose not given; relative to: TBI plus compound vs TBI).
For `CC1(C)[C@H](C=C(Cl)Cl)[C@H]1C(=O)OCc1cccc(Oc2ccccc2)c1`, “relative enzyme contribution” read 32.7% (human cytosolic CES1; IVIVE from expressed enzymes; human, 5 years old, expressed human CES1; 0.1 µM; relative to: total hepatic CLint in vivo).
`Nc1ncnc2c([C@@H]3N[C@H](CO)[C@@H](O)[C@H]3O)c[nH]c12` gave a cell number of 5010 and 5620 (HeLa; 1.6 µM).
`CC[C@H](C)[C@H](NC(=O)[C@H](Cc1ccccc1)NC(=O)[C@H](CCC(=O)O)NC(=O)[C@H](CCCNC(=N)N)NC(=O)[C@H](C)NC(=O)[C@H](C)NC(=O)[C@H](CCC(N)=O)NC(=O)[C@H](CCC(=O)O)NC(=O)[C@H](CCC(=O)O)NC(=O)[C@H](CC(C)C)NC(=O)[C@H](Cc1ccc(O)cc1)NC(=O)[C@H](CO)NC(=O)[C@H](CO)NC(=O)[C@@H](NC(=O)[C@H](CC(=O)O)NC(=O)[C@H](CO)NC(=O)[C@@H](NC(=O)[C@H](Cc1ccccc1)NC(=O)[C@@H](NC(=O)CNC(=O)[C@H](CCC(=O)O)NC(=O)[C@H](C)NC(=O)CCc1c[nH]cn1)[C@@H](C)O)[C@@H](C)O)C(C)C)C(=O)N[C@@H](C)C(=O)N[C@@H](Cc1c[nH]c2ccccc12)C(=O)N[C@@H](CC(C)C)C(=O)N[C@H](C(=O)N[C@@H](CCCNC(=N)N)C(=O)NCC(=O)N[C@@H](CCCNC(=N)N)C(=O)N[C@@H](CCCCNC(=O)COCCOCCNC(=O)COCCOCCNC(=O)CC[C@H](NC(=O)CCCCCCCCCCCCCCCCC(=O)O)C(=O)O)C(=O)NCC(=O)NCC(=O)N[C@@H](CO)C(=O)N[C@@H](CCCCNc1c(NCCCCCN(O)C(=O)CCC(=O)NCCCCCN(O)C(=O)CCC(=O)NCCCCCN(O)C(C)=O)c(=O)c1=O)C(=O)O)C(C)C` [zirconium-89 labelled] has a tissue uptake of 0.03 %ID/g (ex vivo gamma counting; rat, duodenum content; subcutaneous, 3 nmol/kg, 72 h, added: [89Zr]-labelled peptide).
For `CC(=O)N1CCC(C(=O)N2CCN3C(=O)c4cc(-c5ccccc5)ccc4NC(=O)C3C2)CC1` (stereo not shown), “revertants per plate” read 38 (Escherichia coli; WP2 uvrA; 500 µg/plate, with rat liver S9).
The revertant ratio of `Cc1cc(C(=O)NC(C)(C)COc2cccc3c2C(N)=NS(=O)(=O)N3)cc(C)n1` is reported as 0.9 (Salmonella typhimurium; Ames test, confirmatory; TA98; 1000 µg/plate; relative to: solvent control).
For `CC1(C)C(C=C(Cl)Cl)C1C(=O)OC(C#N)c1ccc(F)c(Oc2ccccc2)c1` (stereo not shown), “relative enzyme contribution” read 37.4% (human cytosolic CES1; IVIVE from expressed enzymes; human, 5 years old, expressed human CES1; 0.1 µM; relative to: total hepatic CLint in vivo).
`CC(C)CC(=O)OC[C@H]1O[C@@](C#N)(c2ccc3c(N)ncnn23)[C@H](O)[C@@H]1O` gave a recovery of 90.8% (ABCB1 (Homo sapiens, UniProt P08183); basolateral to apical transport; Caco-2; 90 µM, 2 h, added: verapamil 100 µM).
With `COc1cc(Nc2ncc(F)c(Nc3ccc4c(n3)NC(=O)C(C)(C)O4)n2)cc(OC)c1OC` the IC50 was over 10000 nM (TGF-beta receptor).
For `COC(=O)[C@@H](NC(=O)c1nn(Cc2ccc(F)cc2)c2ccccc12)C(C)(C)C`, “dose producing catalepsy” read 0.1 mg/kg (central CB1 receptor; mouse; intraperitoneal).
`Cc1ncc2n1-c1ccc(Cl)cc1C(c1ccccc1F)=NC2` gave a CLint of 5 µL/min/pmol (CYP3A4, human; 1-hydroxylation pathway).
The AUC(0-t) of `OCc1ncc2n1-c1ccc(Cl)cc1C(c1ccccc1F)=NC2` is reported as 173 ng·h/mL (CYP3A4; substrate; human, plasma; oral, 2 mg midazolam, day 1, cocktail with binimetinib and encorafenib).
With `CCN(CC)C(=O)[C@@H]1C=C2c3cccc4[nH]cc(c34)C[C@H]2N(C)C1` the Vz/F was 35 L (human, plasma; dose not given, after placebo pretreatment).
`Cc1ncc2n1-c1ccc(Cl)cc1C(c1ccccc1F)=NC2` gave a Vd/F of 410 L (Cytochrome P450 3A4 (CYP3A4, Homo sapiens, UniProt P08684); human, plasma; oral, 2 mg, day 1, alone, geometric mean).
`C[C@@H](O)[C@@H](CO)NC(=O)[C@@H](CCCNC(=N)N)NC(=O)[C@@H]1CCCN1C(=O)[C@@H]1CSSC[C@H](NC(=O)[C@H](Cc2ccccc2)NC(=O)CN2CCN(CC(=O)O)CCN(CC(=O)O)CCN(CC(=O)O)CC2)C(=O)N[C@@H](Cc2ccc(O)cc2)C(=O)N[C@@H](Cc2ccccc2)C(=O)N[C@@H](CCC(N)=O)C(=O)N[C@@H](CC(N)=O)C(=O)N1` [gallium-68 labelled] gave a tissue uptake of 0.07 %ID/g (Wistar rat, healthy, Parotid gland; intravenous, 8 MBq, 120 min, mean).
The tissue uptake of `CC(C)[C@@H]1NC(=O)[C@H](Cc2ccccc2)NC(=O)[C@@H]2NC(=O)[C@H](Cc3ccccc3)NC(=O)[C@@H]3CCCN3C(=O)CNC(=O)[C@H](Cc3ccccc3)NC(=O)[C@@H]3CNCCCC[C@@H](C(=O)O)NC(=O)[C@@H]4NC(=O)[C@H](CC(N)=O)NC(=O)CNC(=O)[C@H]([C@@H](O)C(=O)O)NC(=O)[C@H](CSC[C@@H](NC(=O)[C@H](CCC(N)=O)NC(=O)[C@H](CCCCNC(=O)c5ccc(NN)nc5)NC(=O)[C@@H](N)CS[C@H]4C)C(=O)N[C@@H](CS[C@H]2C)C(=O)N3)NC1=O` [technetium-99m labelled] is reported as 0.08 ± 0.02 %ID/g (rat, saline control, stomach; intravenous, 2 h after tracer, tracer 2 h after reperfusion).
For `CN1CC[C@@H](c2c(O)cc(O)c3c(=O)cc(-c4ccc(C(F)(F)F)cc4Cl)oc23)[C@@H]1CO`, “patients with adverse event” read 17.5% (refers to: Constipation; relapsed or refractory haematological malignancies; oral, dose not given, all arms).
With `C[C@H]1CN(c2n[nH]c3nc(N[C@H]4CC[C@H](NS(=O)(=O)CCC(F)(F)F)CC4)ncc23)CCO1` the remaining binding was 1.08 (Prostaglandin E synthase 2 (Homo sapiens, UniProt Q9H7Z7); Kinobeads competition, refers to: PTGES2; 20 µM, unit not given; relative to: vehicle).
`COc1ccc(N2C(=O)N(c3c(C)cccc3Cl)Cc3cnc(Nc4ccc(C5CCN(C)CC5)cc4OC)nc32)nc1` has an inhibition of 3.37% (CAMK2A (Homo sapiens, UniProt Q9UQM7); kinase activity; 0.5 µM).
For `Fc1ccc([C@@H]2CCNC[C@H]2COc2ccc3c(c2)OCO3)cc1`, the IC50 was 2510 nM (Plasmodium falciparum; W2).
For `OC(CCN1CC=C(c2ccc(F)cc2)CC1)c1ccc(F)c2ccccc12` (stereo not shown), the survival was 21.8% (Salmonella typhimurium; SOS/umu test; TA1535/pSK1002; 0.016 mg/mL, 4 h, without S9, full range).
`COc1cc2c(Oc3ccc4[nH]c(C)cc4c3F)ccnc2cc1OCC1(N)CC1`: “incidence of adverse event” 8.8% (refers to: grade 1 or 2 bone pain; paediatric high-risk refractory sarcoma; whole group).
For `CCCC[C@H](NC(C)=O)C(=O)N[C@@H](CO)C(=O)N[C@H](C(=O)N1CCC[C@H]1C(=O)N[C@@H](C)C(=O)N[C@@H](CCCNC(=N)N)C(=O)N[C@@H](CCCNC(=N)N)C(=O)N[C@@H](CCCNC(=N)N)C(=O)N[C@@H](CC(C)C)C(=O)N[C@@H](CCCC)C(=O)N[C@@H](CCCNC(=N)N)C(=O)N[C@@H](CC(=O)O)C(=O)N[C@@H](Cc1ccccc1)C(=O)N[C@@H](CCCCN)C(=O)N[C@@H](CCCNC(=N)N)C(=O)N[C@@H](CC(C)C)C(=O)N[C@@H](CCC(N)=O)C(N)=O)[C@@H](C)O`, “remaining intact peptide” read 42.7% and 50% (Proteinase K (PROK, Engyodontium album, UniProt P06873); proteolytic stability, LC-MS; 25 µM, 20.5 min, pH 7.4).
With `C[C@@H]1CC[C@H]2[C@@H](C)C(=O)O[C@@H]3O[C@@]4(C)CC[C@@H]1[C@]32OO4` the IC50 was 21 nM (Plasmodium falciparum; cell growth; HB3).
The induction factor of `O=[N+]([O-])c1ccc(N2CCN(CCC(O)c3ccc(F)cc3)CC2)c(C(F)(F)F)c1` (stereo not shown) is reported as 0.9 (Salmonella typhimurium; genotoxicity, SOS/umu test; TA1535/pSK1002; 0.002 mg/mL, 4 h, with S9, lower range).
With `Nc1ccc2cc3ccccc3cc2c1` the revertant ratio was 4.7 (Salmonella typhimurium; Ames test, initial; TA100; 2.0 µg/plate, added: rat liver S9; relative to: solvent control).

For quick reference, copied from above:
With `CCN(CC)C(=O)[C@@H]1C=C2c3cccc4[nH]cc(c34)C[C@H]2N(C)C1` the Vz/F was 35 L (human, plasma; dose not given, after placebo pretreatment).
With `C[C@@H]1CC[C@H]2[C@@H](C)C(=O)O[C@@H]3O[C@@]4(C)CC[C@@H]1[C@]32OO4` the IC50 was 21 nM (Plasmodium falciparum; cell growth; HB3).
For `CO[C@H]1C[C@@H]2CC[C@@H](C)[C@@](O)(O2)C(=O)C(=O)N2CCCC[C@H]2C(=O)O[C@H]([C@H](C)C[C@@H]2CC[C@@H](OC(=O)NCCOCCOCCOCCOCCOCCOCCOCCOCCC(=O)N3CCc4cc(Cn5nc(-c6ccc7oc(N)nc7c6)c6c(N)ncnc65)ccc4C3)[C@H](OC)C2)C[C@@H](O)[C@H](C)/C=C(\C)[C@@H](O)[C@@H](OC)C(=O)[C@H](C)C[C@H](C)/C=C/C=C/C=C/1C`, “maculopapular rash TEAE incidence” read 0% (dose-escalation trial; patients with advanced solid tumours; intravenous, 1.6 mg/3 mg weekly, any grade).
For `CC1(C)[C@H](C=C(Cl)Cl)[C@H]1C(=O)OCc1cccc(Oc2ccccc2)c1`, “relative enzyme contribution” read 32.7% (human cytosolic CES1; IVIVE from expressed enzymes; human, 5 years old, expressed human CES1; 0.1 µM; relative to: total hepatic CLint in vivo).
